{"data": "Measured values of several laboratories", "note": "A part holds a random share of what one study measured."}
{"data": "Block 1", "target": "RNA binding protein fox-1 homolog 2, RRM domain, GST-SBP tag (RBFOX2, Homo sapiens, UniProt O43251-10, residues 100-194)", "technique": "RNA Bind-n-Seq", "molecule type": "RNA", "matrix": "in vitro", "concentration": "365 nM", "setting": "natural RNA segment, single round, ends assumed", "relative to": "no-protein control", "direction": "higher = stronger binding", "shared flanks, not repeated": "GGGAGUUCUACAGUCCGACGAUC … UGGAAUUCUCGGGUGCCAA", "Construct (chain)": "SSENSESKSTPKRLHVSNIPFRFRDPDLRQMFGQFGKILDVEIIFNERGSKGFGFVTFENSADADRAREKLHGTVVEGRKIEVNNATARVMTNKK"}
{"Oligonucleotide": "GAAAGUUCCCUUUGGUCCACAGGGCCAUUUCAAGCAAGUUCAAUGACCUGGUCCCUUAGAGCUCCAUAUCCCAGUCCCAGCCCUUCUUUGCAGCUGGGCCUCUCUAUACC", "RBNS enrichment (R)": 0.377}
{"Oligonucleotide": "CCCUUCGCCUCUACUGCGAGGCCUGGGGAGAUGUUGUUUUCAUGCUGCUUCCACCAUCACACUGGGGUUUCUGGAUGGGAAAUAAAAAAAUAAAGGCAGUUCAUUUCCCC", "RBNS enrichment (R)": 0.27}
{"Oligonucleotide": "AUGCUUAGAAUAUCAGUAUUUUGGAUGUUGCUGCAUUUUACAAUUUAUUUGGAGUCUUCCUUUAUUUUCCCCCAGAUAUAUGAAAAUAUGCAAUACCUGCUUAUAUCAUG", "RBNS enrichment (R)": 0.652}
{"Oligonucleotide": "UUCACACAACGCCUCACCACCACCAGCCUCCAGGCAAAACCAGAUAGGAUGCACCGUUCUAGCACCUGUCCAGGGACCACCGAGCCCAGGCCUCAGCCUCCCUAAGAUGG", "RBNS enrichment (R)": 0.626}
{"Oligonucleotide": "AAGAUUUUGGUGAGGAAUAAUAGUAUAUAGUUUAAGUAUUGACAAAACUUUGAAAGUUUCUUUCUUUAAAAUGGGAAAUACUCAAUAUCUAAAUCCAGGUCAGGCAUGGG", "RBNS enrichment (R)": 1.11}
{"Oligonucleotide": "CCCACCCCCGCACCCACUAAUUCUGCUUUUCCUGCCCCUUGCUCCGUAAAAGUAUCAAAUACUUUCUCCUUGGUAUCUCAAGGAGGUUUCUGAGAUAGGUAGAAGUCUUG", "RBNS enrichment (R)": 0.436}
{"Oligonucleotide": "GCCGCUACCCGGUUCAUUUAUUUGCAAUUUGAGCCAUUUAAAGACCAAUAAAAUUCCUUUUCUAUAAUGUCUGUGGUGUUCAUUGAUGUUUACAGCGUGAUAGUCUUACU", "RBNS enrichment (R)": 0.315}
{"Oligonucleotide": "UUCCUUUCCUCGUGGCAGAGGCCUGCAUGUGGGUGCCAGAGGCCAGCUCUCCCCCUCCAUCUUGGGGGGGCGGAGCAGUUGGGCCCAAGCUGCCCGGGAGGGUGGGUGCA", "RBNS enrichment (R)": 12.9}
{"data": "Block 2", "target": "Centromere-binding protein 1, full length, His-tagged (CBF1, Saccharomyces cerevisiae, UniProt P17106, residues 1-351)", "technique": "competition protein-binding microarray", "molecule type": "double-stranded DNA, one strand shown", "matrix": "in vitro", "concentration": "2 µM", "setting": "whole 60-bp probe, lowest competitor level", "added": "Pho4 competitor, 0.05 µM", "direction": "higher = stronger binding", "shared flanks, not repeated": "… GTCTTGATTCGCTTGACGCTGCTG", "chain of UniProt P17106 (whole entry, looked up)": "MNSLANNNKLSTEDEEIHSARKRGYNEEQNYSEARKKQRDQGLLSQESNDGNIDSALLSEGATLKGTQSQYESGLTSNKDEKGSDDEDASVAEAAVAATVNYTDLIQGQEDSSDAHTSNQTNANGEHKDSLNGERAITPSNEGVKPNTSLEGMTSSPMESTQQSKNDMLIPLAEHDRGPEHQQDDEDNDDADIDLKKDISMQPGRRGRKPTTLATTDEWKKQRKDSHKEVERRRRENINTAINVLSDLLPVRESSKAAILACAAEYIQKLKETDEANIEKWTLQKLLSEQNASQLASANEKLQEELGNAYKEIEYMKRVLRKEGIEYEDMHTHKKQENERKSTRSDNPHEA"}
{"Oligonucleotide": "CGCCGACGACGCCGACACGCACCGTTCTACTCGCTC", "fluorescence intensity [a.u.]": 53.3}
{"Oligonucleotide": "AAATTACTAAGTTGTCACAATACTTACCCCGTATGA", "fluorescence intensity [a.u.]": 96.3}
{"Oligonucleotide": "CATACCCAACCTTGATAAGTGGGTGAAGATATTTGT", "fluorescence intensity [a.u.]": 64.1}
{"Oligonucleotide": "TCGGTAGGGCCATCTCGCGTGCCAGAACAGACAAGA", "fluorescence intensity [a.u.]": 89.3}
{"Oligonucleotide": "GTCTTGTCTCATTGTCACCCGACTTTCCCCACTTCA", "fluorescence intensity [a.u.]": 86.4}
{"Oligonucleotide": "AAGATAGGATTGAACATCGTGCAAACAATGGCCAGC", "fluorescence intensity [a.u.]": 91}
{"Oligonucleotide": "GCTGATATCTACGTACATGTGTATACTTGCCAATAT", "fluorescence intensity [a.u.]": 133}
{"Oligonucleotide": "GTCTTGTCTCATTCGCACGTGTTTTTCCCCACTTCA", "fluorescence intensity [a.u.]": 1260}
{"Oligonucleotide": "GACAATTTGGATTTACACATGGTTGAGATCCTGCAG", "fluorescence intensity [a.u.]": 88.3}
{"Oligonucleotide": "GATTATTGGCCAAGTACCGTGACGGTGGTAAGATTG", "fluorescence intensity [a.u.]": 141}
{"Oligonucleotide": "ACAAAGGCACCAAGCGGCGTGGGACGCTTTCTTGTG", "fluorescence intensity [a.u.]": 57.8}
{"Oligonucleotide": "TGCGCAACAACTTAGCACGTGTTTTTATGTCTAGAA", "fluorescence intensity [a.u.]": 2480}
{"Oligonucleotide": "CAACACAATTCGAGTCACGTGGAACGGCCTTCAAAT", "fluorescence intensity [a.u.]": 6730}
{"Oligonucleotide": "AAATTACTAAGTTTTCACGTGTGGTACCCCGTATGA", "fluorescence intensity [a.u.]": 604}
{"Oligonucleotide": "TGCGCAACAACTTGGCCCGTGGGTGTATGTCTAGAA", "fluorescence intensity [a.u.]": 72.5}
{"Oligonucleotide": "CTAACGAAGGTTTGAGAGGTGGGTGACAAGCCAAGT", "fluorescence intensity [a.u.]": 55.8}
{"Oligonucleotide": "CGTCCTAGCGATTGACTCGTGGGTGCCATGAGGAAG", "fluorescence intensity [a.u.]": 85.7}
{"data": "Block 3", "target": "Ras GTPase-activating protein-binding protein 1, full length (G3BP1, Homo sapiens, UniProt Q13283)", "technique": "RNA Bind-n-Seq", "molecule type": "RNA", "matrix": "in vitro", "concentration": "200 nM", "setting": "whole 134-nt RNA, ends assumed", "added": "150 mM LiCl", "relative to": "input library", "direction": "higher = stronger binding", "each molecule": "7-deaza-guanosine replaces G", "shared flanks, not repeated": "GGGAGUUCUACAGUCCGACGAUC … UGGAAUUCUCGGGUGUCAAGG", "chain of UniProt Q13283 (whole entry, looked up)": "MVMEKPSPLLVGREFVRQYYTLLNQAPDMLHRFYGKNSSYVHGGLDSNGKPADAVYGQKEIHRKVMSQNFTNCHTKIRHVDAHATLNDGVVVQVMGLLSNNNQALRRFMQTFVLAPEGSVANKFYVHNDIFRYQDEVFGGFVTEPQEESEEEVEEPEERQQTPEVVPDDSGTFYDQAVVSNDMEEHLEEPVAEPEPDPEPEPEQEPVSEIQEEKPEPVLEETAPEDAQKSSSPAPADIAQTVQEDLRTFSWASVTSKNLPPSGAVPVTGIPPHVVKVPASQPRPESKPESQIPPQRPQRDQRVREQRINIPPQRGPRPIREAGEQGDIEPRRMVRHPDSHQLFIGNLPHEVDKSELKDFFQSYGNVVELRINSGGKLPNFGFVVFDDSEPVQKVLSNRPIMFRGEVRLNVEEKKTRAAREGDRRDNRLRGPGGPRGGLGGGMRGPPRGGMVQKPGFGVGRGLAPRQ"}
{"Oligonucleotide": "CAAGUCCUGUGCUACACAUCGUAUGUACCGAAUCGGGGUUUGGGUUUGGGUUUGGAAAGUAUUAUGUUACGCCGUUCGGAUCUGCACUUC", "log2 enrichment": -0.392}
{"Oligonucleotide": "CACAGACAACACGCACCCACACAGACACAGAGGGAAGGGGUUGGGAUGGGGACAGGGUGCACAGCAGGGCGGGGUAAGACCCCAGCCCCU", "log2 enrichment": 1.04}
{"Oligonucleotide": "CUCAAGUCCUGUGCUACACAUCGUAUGUACCGAAUCGGGUGGGAAAGGGUGGGAAAGUAUUAUGUUACGCCGUUCGGAUCUGCACUUCCA", "log2 enrichment": 0.104}
{"Oligonucleotide": "UGGGAGGUGGAUUUUGUUUAUUUUUUUAGCUCAUUUCCAGGGGUGGGAGUUUUUUUUUAAUAUGUGUCAUGAAUAAAGUUGUUUUUGAAA", "log2 enrichment": 0.126}
{"Oligonucleotide": "UCAAGUCCUGUGCUACACAUCGUAUGUACCGAAUCGGGAAAGGGAAAGGGUGGGAAAGUAUUAUGUUACGCCGUUCGGAUCUGCACUUCC", "log2 enrichment": -0.564}
{"Oligonucleotide": "UCCUCAAGUCCUGUGCUACACAUCGUAUGUACCGAAUCGGGCGGGCGGCGGAAAGUAUUAUGUUACGCCGUUCGGAUCUGCACUUCCAGC", "log2 enrichment": 1.16}
{"Oligonucleotide": "AGUCCUGUGCUACACAUCGUAUGUACCGAAUCGGGAGGGAAAAAGGGAAAAAAAGGGAAAGUAUUAUGUUACGCCGUUCGGAUCUGCACU", "log2 enrichment": -0.348}
{"Oligonucleotide": "UCAAGUCCUGUGCUACACAUCGUAUGUACCGAAUCGGGUUUUUGGGUGGGUGGGAAAGUAUUAUGUUACGCCGUUCGGAUCUGCACUUCC", "log2 enrichment": -0.668}
{"data": "Block 4", "target": "Max-binding protein MNT, bHLH-zipper, MAX partner unstated (MNT, Homo sapiens, UniProt Q99583, residues 220-300)", "technique": "protein-binding microarray", "molecule type": "double-stranded DNA, one strand shown", "matrix": "in vitro", "concentration": "not given", "setting": "k-mer, scored over probes, only values ≥0.25", "direction": "higher = stronger binding", "Construct (chain)": "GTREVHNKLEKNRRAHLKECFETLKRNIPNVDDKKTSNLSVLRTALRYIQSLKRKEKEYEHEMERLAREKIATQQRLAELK"}
{"Oligonucleotide": "GCCCACCC", "E-score": 0.414}
{"Oligonucleotide": "ACCCCAAT", "E-score": 0.259}
{"Oligonucleotide": "CATGCCTC", "E-score": 0.34}
{"Oligonucleotide": "AATCATGC", "E-score": 0.286}
{"Oligonucleotide": "CGCTCACG", "E-score": 0.28}
{"Oligonucleotide": "CGCACACC", "E-score": 0.294}
{"Oligonucleotide": "ACCACGCT", "E-score": 0.404}
{"Oligonucleotide": "ATACCCCA", "E-score": 0.261}
{"Oligonucleotide": "ATGTGGCC", "E-score": 0.354}
{"Oligonucleotide": "GGCATGCA", "E-score": 0.344}
{"Oligonucleotide": "AACATGCC", "E-score": 0.304}
{"Oligonucleotide": "ACGTGCTA", "E-score": 0.451}
{"Oligonucleotide": "CATCACGC", "E-score": 0.338}
{"Oligonucleotide": "CACATGGA", "E-score": 0.473}
{"note": "Repeated from above (block 2):"}
{"Oligonucleotide": "GACAATTTGGATTTACACATGGTTGAGATCCTGCAG", "fluorescence intensity [a.u.]": 88.3}
{"Oligonucleotide": "GATTATTGGCCAAGTACCGTGACGGTGGTAAGATTG", "fluorescence intensity [a.u.]": 141}
{"Oligonucleotide": "ACAAAGGCACCAAGCGGCGTGGGACGCTTTCTTGTG", "fluorescence intensity [a.u.]": 57.8}
{"Oligonucleotide": "TGCGCAACAACTTAGCACGTGTTTTTATGTCTAGAA", "fluorescence intensity [a.u.]": 2480}
{"Oligonucleotide": "CAACACAATTCGAGTCACGTGGAACGGCCTTCAAAT", "fluorescence intensity [a.u.]": 6730}
{"Oligonucleotide": "AAATTACTAAGTTTTCACGTGTGGTACCCCGTATGA", "fluorescence intensity [a.u.]": 604}
{"Oligonucleotide": "TGCGCAACAACTTGGCCCGTGGGTGTATGTCTAGAA", "fluorescence intensity [a.u.]": 72.5}
